Results pooled from the literature.
Protocols differ between the studies behind these lines. Converted amounts (≈) assume the structure as drawn.

O=c1[nH]cc(C(c2cccc(F)c2)c2c[nH]c(=O)[nH]c2=O)c(=O)[nH]1
antiviral activity (HIV-1 subtype C; measured: p24; concentration not given): inactive

Nc1ncnc2c1c(Br)cn2[C@@H]1O[C@H](CO)C[C@H]1O
EC50 (Trypanosoma vivax; parasite growth, resazurin; 24 h): 18 nM

CCc1cccc2c(C(=O)COC(=O)C34CC5CC(CC(Br)(C5)C3)C4)c[nH]c12
mRNA level (Arabidopsis thaliana; measured: STH7; seedlings; 20 µM, 24 h, 10-day-old seedlings): decreased

COc1ccc(-n2c(=O)c(C(=O)C3C(=O)CCCC3=O)nc3c(C)cccc32)cc1
ED90 (Monochoria vaginalis; herbicidal activity, paddy pot test, visual rating; 28 days): 6.3 g a.i./10 a

COc1ccc(-c2nc(-c3ccccc3OC)[nH]c2-c2ccc(OC)cc2)cc1
EC50 (Schistosoma mansoni; worm killing; female worms; no effect): > 100000 nM

COC1C=COC2(C)Oc3c(C)c(O)c4c(c3C2=O)C2=NC3(CCN(CC(C)C)CC3)NC2=C(NC(=O)C(C)=CC=CC(C)C(O)C(C)C(O)C(C)C(OC(=O)Nc2cnccn2)C1C)C4=O (centres unmarked)
lung CFU reduction (Mycobacteroides abscessus; subsp. abscessus ATCC 19977, GM-CSF knockout mouse, acute infection, lung; oral, 25 mg/kg daily, 7 doses; baseline: start of treatment): > 2 log CFU

C=C(C)[C@@H]1CC[C@]2(CCCNCCN3CCN(Cc4ccccc4)CC3)CC[C@]3(C)[C@H](CC[C@@H]4[C@@]5(C)CC[C@H](OC(=O)CC(C)(C)C(=O)O)C(C)(C)[C@@H]5CC[C@]43C)[C@@H]12
CA-SP1 accumulation (human immunodeficiency virus 1; western blot; HEK293T transfected, subtype B NL4-3, virion lysates; 100 nM; baseline: total CA): < 1%

CC[C@@H](C)[C@@H](NC(=O)[C@@H](C)NC(=O)[C@@H](CCCCN)NC(=O)[C@@H](CC(C)C)NC(=O)[C@@H](C)NC(=O)[C@H](NC(=O)[C@@H](CCCCN)NC(=O)[C@@H](CC(C)C)NC(=O)[C@H](NC(=O)[C@@H](CCCCN)NC(=O)[C@@H](CCCCN)NC(=O)[C@@H](CCCCN)NC(=O)[C@@H](C)NC(=O)[C@@H](CCCCN)NC(=O)[C@@H](CO)NC(=O)[C@@H](Cc1ccccc1)NC(=O)[C@H](NC(=O)[C@@H](CCCCN)NC(=O)[C@@H](CC(C)C)NC(=O)[C@@H](Cc1ccccc1)NC(=O)[C@@H](CO)NC(=O)[C@@H](CCCCN)NC(=O)[C@@H](Cc1c[nH]c2ccccc12)NC(=O)[C@@H](CCCCN)NC(C)=O)[C@H](C)O)C(C)C)[C@H](C)O)C(=O)N[C@H](CO)C(=O)N[C@H](CCCCN)C(N)=O
MIC geometric mean (Acinetobacter baumannii; 11 isolates; 24 h, 37 °C): 0.6 µM (≈ 1.83 µg/mL)

CC(C)(C)OC(=O)Nc1ccc(-c2cc(C(=O)NCCCCCCC(=O)NO)no2)cc1
IC50 (Lucilia cuprina; larval weight gain; LS strain, larvae on impregnated cotton wool; 24 h): > 1000 µg

CN(C)CCCSC(=S)N1CCN(C(=O)/C=C/c2coc3ccccc3c2=O)CC1
inhibition (CMV; virus inactivation; 500 µg/mL, mean): 76.6%

Oc1c(Cl)cc(Cl)c2cccnc12
MIC (Aeromonas hydrophila; microbial growth, agar dilution): 37.4 µM

[NH-]c1c([I+]c2ccccc2)c(=O)oc2ccccc12
inhibition (dengue virus 2; cytopathic effect; BHK-21; concentration not given): ≤ 12%

Fc1ccc2c(c1)c1nc3ccc(Br)cc3c-1cn2Cc1cn(-c2ccccc2I)nn1
fold change (Giardia duodenalis; UHPLC-Q-TOF-MS, measured: PS(P-20:0/22:6); trophozoites; IC50, 0.2083 h; baseline: 0.25% DMSO): -64.8

Cc1cc(Cl)ccc1OCCCC(=O)NO
IC50 (Lucilia cuprina; pupation; LS strain, larvae on impregnated cotton wool; 216 h): > 1000 µg

C[OH+][Cu-2]12[O]C(c3cn(-c4ccccc4)nc3-c3ccc(C)cc3)=N[N+]1=C(C)c1c(cc(C)oc1=O)[O]2 (centres unmarked)
parasitaemia suppression (Plasmodium falciparum; 3D7; 12.5 µg/mL, 72 h): 100%

C=C(C)[C@@H]1CC[C@]2(CCNCCCN3CCCC3)CC[C@]3(C)[C@H](CC[C@@H]4[C@@]5(C)CC[C@H](OC(=O)CC(C)(C)C(=O)O)C(C)(C)[C@@H]5CC[C@]43C)[C@@H]12
CA-SP1 accumulation (human immunodeficiency virus 1; western blot; HEK293T transfected, subtype B NL4-3, virion lysates; 100 nM; baseline: total CA): 25 to 30%

Nc1ncnc2c1c(-c1ccccn1)cn2[C@@H]1O[C@H](CO)[C@@H](O)[C@H]1O
EC50 (Trypanosoma vivax; parasite growth, resazurin; 24 h): 12900 nM

CC(=O)[O-].O.O.O.O.[Ni+2].[O-]c1ccc(Br)cc1C=NCCN1CCOCC1
inhibition zone diameter (Candida albicans; 20 µL of 100 µM per disc): 25 mm

CC[C@@H](C)[C@@H](NC(=O)[C@@H](C)NC(=O)[C@@H](CCCCN)NC(=O)[C@@H](CC(C)C)NC(=O)[C@@H](C)NC(=O)[C@H](NC(=O)[C@@H](Cc1c[nH]cn1)NC(=O)[C@@H](CC(C)C)NC(=O)[C@H](NC(=O)[C@H](NC(=O)[C@@H](CCCCN)NC(=O)[C@H](NC(=O)[C@@H](C)NC(=O)[C@@H](CO)NC(=O)[C@@H](CCCCN)NC(=O)[C@@H](Cc1ccccc1)NC(=O)[C@H](NC(=O)[C@@H](CCCCN)NC(=O)[C@@H](CC(C)C)NC(=O)[C@@H](Cc1ccccc1)NC(=O)[C@@H](CO)NC(=O)[C@@H](CCCCN)NC(=O)[C@@H](Cc1c[nH]c2ccccc12)NC(=O)[C@@H](CCCCN)NC(C)=O)[C@H](C)O)C(C)C)[C@H](C)O)C(C)C)[C@H](C)O)C(=O)N[C@H](CO)C(=O)N[C@H](CO)C(N)=O
MIC (Acinetobacter baumannii; 649, Mueller-Hinton broth; 24 h, 37 °C): 0.7 µM

CC1COCCN1c1nc(NCc2cccnc2C(F)(F)F)c2cccnc2n1 (centres unmarked)
viability and motility (Brugia malayi; up to 5 µM, microfilariae): no effect

CC(C)C(=O)SCCCCCC(NC(=O)OC(C)(C)C)C(=O)NC12CC3CC(CC(C3)C1)C2 (centres unmarked)
IC50 (Lucilia cuprina; pupation; LS strain, larvae on impregnated cotton wool; 216 h): > 1000 µg

CN1C[C@H](c2cccc(C(F)(F)F)c2)[C@@H](C(=O)Nc2ccccc2F)C1=O
resistance (Arabidopsis thaliana; root length; overexpressing mutant DHODH MT-8; 5 µM; baseline: non-transgenic wild type): ~5.4 fold

Brc1ccc(-c2c[nH]c(-c3ccccn3)n2)cc1
EC50 (Schistosoma mansoni; worm killing; male worms): 32000 nM

N#Cc1ccc2cccc(O)c2n1
MIC (Listeria monocytogenes; microbial growth, agar dilution): 1500 µM

COc1cc(/C=C/C(=O)N[C@@H](CCCCCC(=O)NO)C(=O)Nc2cccc3cccnc23)cc(OC)c1O
IC50 (Lucilia cuprina; pupation; LS strain, larvae on impregnated cotton wool; 216 h): > 1000 µg

CC1=CC[C@@H]2C[C@H]1C2(C)C
choice of control (Mythimna separata; olfactory preference, Y-tube olfactometer; females; baseline: liquid paraffin control): 77%

O=C(NO)c1cccc(C(=O)NCCc2ccccc2)c1
IC50 (Lucilia cuprina; larval weight gain; LS strain, larvae on impregnated cotton wool; 24 h): > 1000 µg

Nc1ncnc2c1c(Cl)cn2[C@@H]1O[C@H](CO)C[C@H]1O
EC50 (Trypanosoma vivax; parasite growth, resazurin; 24 h): 96 nM

O=c1[nH]cc(C(c2ccc(Br)cc2)c2c[nH]c(=O)[nH]c2=O)c(=O)[nH]1
antiviral activity (HIV-1 subtype C; measured: p24; concentration not given): inactive

CC(C)C[C@@H]1NC(=O)[C@H](C)NC(=O)CCNC(=O)[C@@H](Cc2ccccc2)NC1=O
leaf development inhibition (Lolium multiflorum; herbicidal activity, germination in agar; 67 µg/mL, 12 days): 23%

COc1ccc(Cn2ccc3ccc(C(=O)NO)cc32)cc1
IC50 (Lucilia cuprina; larval weight gain; LS strain, larvae on impregnated cotton wool; 24 h): > 1000 µg

COc1ccc(-n2c(=O)c(C(=O)C3C(=O)CCCC3=O)nc3c(Cl)cccc32)cc1
ED90 (Monochoria vaginalis; herbicidal activity, paddy pot test, visual rating; 28 days): 6.3 g a.i./10 a

Nc1ccn(C[C@@H](CO)OCP(=O)(O)OCCCS(=O)(=O)CCCCCCCCCCC2CCC2)c(=O)n1
selectivity index (human adenovirus 5; cytopathic effect; Adenoid 75; baseline: CC50 over EC50): 83

CNc1cc(C(=O)Nc2ccc(Cl)cc2)ccc1OC
serum DHBV DNA (duck hepatitis B virus; quantitative PCR; DHBV-infected Pekin ducklings, serum; oral, 100 mg/kg): inhibited

C#Cc1cn([C@@H]2O[C@H](CO)C[C@H]2O)c2ncnc(N)c12
EC50 (Trypanosoma vivax; parasite growth, resazurin; 24 h): 159 nM

CN(C)c1ccc(C(=O)NCCCCCCC(=O)NO)cc1
IC50 (Lucilia cuprina; pupation; LS strain, larvae on impregnated cotton wool; 216 h): 890 µg

CC1(CCCCCCCCCCOCCCOP(=O)(O)CO[C@H](CO)Cn2ccc(N)nc2=O)COC1
selectivity index (human adenovirus 5; cytopathic effect; Adenoid 75; baseline: CC50 over EC50): > 5

CC(C)C(C(=O)Nc1ccc(C(=O)NO)cc1)c1ccccc1 (centres unmarked)
potency ratio (Lucilia cuprina; larval growth; baseline: diflubenzuron and dicyclanil, fold less potent): 50 to 100 fold

O=c1[nH]cc(C(c2ccccc2F)c2c[nH]c(=O)[nH]c2=O)c(=O)[nH]1
antiviral activity (HIV-1 subtype C; measured: p24; concentration not given): inactive

C[C@@H](O)[C@H](NC(=O)c1ccc(C#Cc2ccc(CN3CCOCC3)cc2)cc1)C(=O)NO
MIC90 (Enterobacter spp): 0.5 µg/mL (≈ 1.14 µM)

CCN(CC)c1ccc2nc3c4ccccc4/c(=N/c4ccncc4)cc-3oc2c1
remaining growth (Plasmodium falciparum; NF54; 62.5 ng/mL, 6 h, rings, trophozoites, schizonts; baseline: untreated): < 3%

O=c1[nH]cc(C(c2cccc(Cl)c2)c2c[nH]c(=O)[nH]c2=O)c(=O)[nH]1
IC50 (HIV-1 subtype C; viral replication, measured: p24): 62.5 µg/mL (≈ 180 µM)

CC(C)Oc1cccc(NC(=O)CCCN2C(=O)c3ccccc3C2=O)c1
mRNA level (Arabidopsis thaliana; qRT-PCR, measured: YUC6; concentration not given, 60 min): decreased

O=c1c2ccccc2sn1-c1cc(Br)cc(Br)c1
MIC (Candida albicans; growth, broth dilution; ATCC MYA-1237 (resistant); MIC-0): 3.13 µg/mL

CC[C@@H](C)[C@@H](NC(=O)[C@@H](C)N)C(=O)N[C@H](CCCCN)C(=O)N[C@@H](C(=O)N[C@H](CCCNC(=N)N)C(=O)N[C@H](CCCCN)C(=O)N[C@H](CC(C)C)C(=O)N[C@H](Cc1ccccc1)C(=O)N[C@H](CCCCN)C(=O)N[C@H](CCCCN)C(=O)N[C@H](CC(C)C)C(=O)N[C@H](CC(C)C)C(=O)N[C@H](CCCNC(=N)N)C(N)=O)[C@H](C)CC
MIC of antibiotic (Escherichia coli; broth microdilution checkerboard, measured: gentamicin; ATCC 25922, LB medium; concentration not given): 0.39 µg/mL

c1ccc(-c2nc(-c3ccc4ccccc4c3)c[nH]2)cc1
worm killing (Schistosoma mansoni; female worms; 25 µM): 0%

Oc1c(Br)cc(Br)c2nc3c(C(F)(F)F)cc(C(F)(F)F)cc3nc12
MBC (Staphylococcus aureus; microbial killing; 147; clinical isolate): 0.78 µM (≈ 0.382 µg/mL)
